Measurements pooled from the literature.
Every numbered part comes from another study and shows a few of its results, in no order.

Series 1
Target: RING finger protein unkempt homolog, zinc fingers 1-6, GST-SBP tag (UNK, Homo sapiens, UniProt Q9C0B0, residues 30-357)
Method: RNA Bind-n-Seq
Form: RNA
Medium: in vitro
Concentration: not given
Notes: RNA with constant flanks, human-mouse chimeric sites, ends assumed
Baseline: input RNA pool
Direction: higher = stronger binding
Residues (chain): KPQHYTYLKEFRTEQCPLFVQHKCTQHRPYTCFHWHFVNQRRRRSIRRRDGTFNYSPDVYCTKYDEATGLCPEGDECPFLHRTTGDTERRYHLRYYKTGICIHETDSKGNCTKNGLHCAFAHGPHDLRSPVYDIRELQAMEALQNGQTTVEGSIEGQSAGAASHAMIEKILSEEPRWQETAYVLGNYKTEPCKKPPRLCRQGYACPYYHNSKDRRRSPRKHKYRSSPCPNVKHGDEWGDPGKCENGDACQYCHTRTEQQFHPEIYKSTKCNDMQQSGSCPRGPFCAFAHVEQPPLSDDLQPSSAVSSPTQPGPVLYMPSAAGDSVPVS
`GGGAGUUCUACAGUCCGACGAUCAGAUUCCCCCUCCUGAGGCCUUCUCCAAAGUUGGAGUCUCUUACAGAUGCCUCAUCCCCUGUUAGCGUUUUGGUCUGGACCACCCAGCCUUGGACAAUUCCCGCCAACCAGGCAAUUUGCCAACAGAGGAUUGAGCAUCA` gave a bound/input enrichment of 0.566 ratio.
`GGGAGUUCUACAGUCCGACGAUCUCUGGUCAUACUCGUGCGUAUGGUGUUUGCUUUGUUGACACUUCACUGGGCAAGUUUUUCAUCGGCCAGUUUUCGGAUGACCGCCACUGUUCCAGAUUUAGGACGCUAGUGGCUCACUAUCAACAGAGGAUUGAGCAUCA` gave a bound/input enrichment of 0.269 ratio.
`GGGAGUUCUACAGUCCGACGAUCGGCCUGGGACCGUCCUGGGCUAGUACAAUAGCGGCAGGUGGAGGCUCAGAGGAAAGUUUUGUUAGUGGAGGCAGUGGUAGAGGCCGUCAUGUACGGUCCUUUACUCGAUAGAUGUGUUCUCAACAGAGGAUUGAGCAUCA` gave a bound/input enrichment of 0.639 ratio.
With `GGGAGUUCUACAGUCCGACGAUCCGCAGAAGGUUAAAGGGUGAGAGUGGGGUGGAAGACUGUGUCAUGGCCCUAGAAACCCUGUUCAGUGUCCUGCUUUCUCUGUGCAGACUGAUGGCCCCUUACACGCCCUUUCUGACUGAGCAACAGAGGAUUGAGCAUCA` the bound/input enrichment was 0.0442 ratio.
`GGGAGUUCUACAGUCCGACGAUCCAGGGCAUUAUUUCUCGUGCUGUUAGACACCUGUUCAAGAGUAUUGAUGAGAAAAAGACCUCAGCGAUUAAAAACGGGCUGCCCCCUCCUGAAUUCAAAGUGAAUGCCCAAUUCUUAGAGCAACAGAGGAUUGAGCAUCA` gave a bound/input enrichment of 0.405 ratio.
For `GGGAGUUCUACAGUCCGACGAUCCUGAGGAUACCACUGAAGAGACCUUAAAAGAAUCAUUUUGACGGCUCGUUCGUGCAAGAAUAGUCACUGAUCGGGAAACUGGUUCUUCCAAAGGGUUUGGUUUUGUAAGACUUCAACGUGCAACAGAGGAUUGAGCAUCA`, the bound/input enrichment was 0.181 ratio.
`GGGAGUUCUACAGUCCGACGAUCCGGAGCCCUCCUCUCCCACAGGCCCAAGAUAUAACCCACCAGUGCCUUCUGUCUGCUUGUCAGCUCUGUCAAUCACGCCUGUCCUCUCACGCCCACACCAAGUGCCCAAAGUGGGGAGGGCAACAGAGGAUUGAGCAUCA` has a bound/input enrichment of 0.491 ratio.

Series 2
Target: Centromere-binding protein 1, full length, His-tagged (CBF1, Saccharomyces cerevisiae, UniProt P17106, residues 1-351)
Chain of UniProt P17106 (whole entry, looked up): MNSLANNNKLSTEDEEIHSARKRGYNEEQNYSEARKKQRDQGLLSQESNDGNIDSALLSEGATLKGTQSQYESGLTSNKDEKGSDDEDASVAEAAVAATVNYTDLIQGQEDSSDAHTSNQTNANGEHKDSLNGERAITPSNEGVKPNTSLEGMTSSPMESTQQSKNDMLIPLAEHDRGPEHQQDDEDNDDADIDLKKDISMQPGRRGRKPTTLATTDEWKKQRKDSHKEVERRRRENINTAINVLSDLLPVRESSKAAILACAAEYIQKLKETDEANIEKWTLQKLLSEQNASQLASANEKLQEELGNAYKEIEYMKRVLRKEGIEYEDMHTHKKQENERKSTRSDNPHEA
Method: competition protein-binding microarray
Form: double-stranded DNA, one strand shown
Medium: in vitro
Concentration: 2 µM
Notes: whole 60-bp probe, lowest competitor level
Added: Pho4 competitor, 0.05 µM
Direction: higher = stronger binding
`TTTCAAAAAAGGAACTTATCTCTGACAATTTTCGACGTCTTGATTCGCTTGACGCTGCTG` has a fluorescence intensity of 66.2 a.u.
With `AAAAAAAATTTTCGCCTCGTGGCCGGAAACACGGCCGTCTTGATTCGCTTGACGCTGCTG` the fluorescence intensity was 117 a.u.
For `CATACCCAACCTTGGGACGTGGGTGAAGATATTTGTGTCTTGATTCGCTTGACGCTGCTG`, the fluorescence intensity was 62.6 a.u.
For `CATATGGAGCATTTGCACGGGCCCTCAGGATAGAAGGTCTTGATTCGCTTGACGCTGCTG`, the fluorescence intensity was 91.5 a.u.
`CTTCTGTAAATTTGATTGGTGGGTGGACGCGCCCCGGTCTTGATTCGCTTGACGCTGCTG` has a fluorescence intensity of 99.1 a.u.
`TGCGCAACAACTTGAGTGGTGGGTGTATGTCTAGAAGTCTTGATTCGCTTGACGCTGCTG` has a fluorescence intensity of 61.4 a.u.
With `CTTCTGTAAATTTTTCACGTGGGCTGACGCGCCCCGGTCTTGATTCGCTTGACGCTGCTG` the fluorescence intensity was 749 a.u.

Mixed results
`MCM3 (Homo sapiens, UniProt P25205)`: cross-linked residues “K152 to D5” (MCM7 (Homo sapiens, UniProt P33993); cross-linking MS; cell fractions; added: DMTMM).
`PhoQ, residues 284 288 289 292 302 303 SSTMSV` gave a fold induction of 10.8 (PhoP, residues 12 14 15 18 19 LHHSG (Escherichia coli, UniProt P23836); Sort-seq, refers to: YFP reporter; E. coli; PhoQ-PhoP variant library, added: 10 µM Mg2+; baseline: high Mg2+ state, higher = stronger signaling).
For `CCT8 (Homo sapiens, UniProt P50990)`, cross-linked residues read “Y468 to K165” (CNTNAP4 (Homo sapiens, UniProt Q9C0A0); cross-linking MS; cell fractions; added: DSSO).
Under cross-linked residues, `KTN1 (Homo sapiens, UniProt Q86UP2)` is recorded as “K477 to D606” (ARHGAP12 (Homo sapiens, UniProt Q8IWW6); cross-linking MS; cell fractions; added: DMTMM).
